Measured values from different studies.
Each numbered part is a random draw from the data of one study; scales do not carry over between parts.
UniProt P61075, sequence (whole entry, looked up): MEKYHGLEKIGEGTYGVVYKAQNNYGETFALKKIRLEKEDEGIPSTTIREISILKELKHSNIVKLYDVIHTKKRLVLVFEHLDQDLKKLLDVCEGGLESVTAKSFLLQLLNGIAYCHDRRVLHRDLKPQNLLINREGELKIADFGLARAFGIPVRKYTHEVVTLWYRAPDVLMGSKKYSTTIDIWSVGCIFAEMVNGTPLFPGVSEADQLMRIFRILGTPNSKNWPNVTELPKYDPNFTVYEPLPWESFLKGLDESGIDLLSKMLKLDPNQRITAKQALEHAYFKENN
UniProt P9WI81, sequence (whole entry, looked up): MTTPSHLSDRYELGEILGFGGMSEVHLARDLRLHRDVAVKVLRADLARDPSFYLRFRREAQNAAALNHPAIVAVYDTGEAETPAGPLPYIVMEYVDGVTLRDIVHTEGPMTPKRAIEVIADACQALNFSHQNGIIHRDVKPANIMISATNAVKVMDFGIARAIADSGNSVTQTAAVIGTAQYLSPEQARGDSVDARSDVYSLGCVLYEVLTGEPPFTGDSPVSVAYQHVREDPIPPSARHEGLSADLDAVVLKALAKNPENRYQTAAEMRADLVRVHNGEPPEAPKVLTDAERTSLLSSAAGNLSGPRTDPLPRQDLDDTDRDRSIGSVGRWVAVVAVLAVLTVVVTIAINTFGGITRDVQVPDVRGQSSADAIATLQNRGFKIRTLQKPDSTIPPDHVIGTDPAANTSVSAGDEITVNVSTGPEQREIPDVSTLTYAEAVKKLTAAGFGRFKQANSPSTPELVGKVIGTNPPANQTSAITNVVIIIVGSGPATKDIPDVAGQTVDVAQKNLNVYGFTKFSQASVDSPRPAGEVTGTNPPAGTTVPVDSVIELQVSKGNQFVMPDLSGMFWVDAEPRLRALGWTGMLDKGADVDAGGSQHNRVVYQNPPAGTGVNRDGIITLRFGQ
UniProt O60674, sequence (whole entry, looked up): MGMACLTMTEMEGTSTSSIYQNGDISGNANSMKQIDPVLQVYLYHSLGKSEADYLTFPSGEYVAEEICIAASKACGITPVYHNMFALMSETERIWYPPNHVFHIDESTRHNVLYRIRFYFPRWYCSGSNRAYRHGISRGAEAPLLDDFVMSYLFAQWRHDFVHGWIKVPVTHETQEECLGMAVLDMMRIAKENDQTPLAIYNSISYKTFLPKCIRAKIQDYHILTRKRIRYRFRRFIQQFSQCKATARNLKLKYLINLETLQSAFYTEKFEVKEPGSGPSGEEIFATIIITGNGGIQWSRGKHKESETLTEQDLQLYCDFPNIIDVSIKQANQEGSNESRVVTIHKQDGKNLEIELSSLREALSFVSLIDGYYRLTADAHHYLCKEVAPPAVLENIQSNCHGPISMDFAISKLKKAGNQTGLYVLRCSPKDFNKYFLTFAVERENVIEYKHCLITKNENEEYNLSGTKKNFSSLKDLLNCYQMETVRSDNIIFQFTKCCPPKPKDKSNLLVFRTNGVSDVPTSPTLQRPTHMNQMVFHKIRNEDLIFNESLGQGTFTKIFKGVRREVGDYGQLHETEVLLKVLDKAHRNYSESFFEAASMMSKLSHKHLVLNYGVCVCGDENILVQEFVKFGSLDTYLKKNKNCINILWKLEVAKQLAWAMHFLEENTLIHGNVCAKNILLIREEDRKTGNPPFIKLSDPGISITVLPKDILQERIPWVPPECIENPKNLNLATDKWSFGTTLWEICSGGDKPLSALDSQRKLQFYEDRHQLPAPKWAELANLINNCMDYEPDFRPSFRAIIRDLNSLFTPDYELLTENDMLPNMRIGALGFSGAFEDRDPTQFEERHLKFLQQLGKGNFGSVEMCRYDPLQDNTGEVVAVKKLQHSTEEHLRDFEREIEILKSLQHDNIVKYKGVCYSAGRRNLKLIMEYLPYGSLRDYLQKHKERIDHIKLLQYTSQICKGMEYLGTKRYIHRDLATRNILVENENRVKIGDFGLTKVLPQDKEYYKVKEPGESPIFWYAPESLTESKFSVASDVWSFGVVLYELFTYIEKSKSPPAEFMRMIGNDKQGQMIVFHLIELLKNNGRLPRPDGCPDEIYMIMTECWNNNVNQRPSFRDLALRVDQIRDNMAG
UniProt Q8IWQ3, sequence (whole entry, looked up): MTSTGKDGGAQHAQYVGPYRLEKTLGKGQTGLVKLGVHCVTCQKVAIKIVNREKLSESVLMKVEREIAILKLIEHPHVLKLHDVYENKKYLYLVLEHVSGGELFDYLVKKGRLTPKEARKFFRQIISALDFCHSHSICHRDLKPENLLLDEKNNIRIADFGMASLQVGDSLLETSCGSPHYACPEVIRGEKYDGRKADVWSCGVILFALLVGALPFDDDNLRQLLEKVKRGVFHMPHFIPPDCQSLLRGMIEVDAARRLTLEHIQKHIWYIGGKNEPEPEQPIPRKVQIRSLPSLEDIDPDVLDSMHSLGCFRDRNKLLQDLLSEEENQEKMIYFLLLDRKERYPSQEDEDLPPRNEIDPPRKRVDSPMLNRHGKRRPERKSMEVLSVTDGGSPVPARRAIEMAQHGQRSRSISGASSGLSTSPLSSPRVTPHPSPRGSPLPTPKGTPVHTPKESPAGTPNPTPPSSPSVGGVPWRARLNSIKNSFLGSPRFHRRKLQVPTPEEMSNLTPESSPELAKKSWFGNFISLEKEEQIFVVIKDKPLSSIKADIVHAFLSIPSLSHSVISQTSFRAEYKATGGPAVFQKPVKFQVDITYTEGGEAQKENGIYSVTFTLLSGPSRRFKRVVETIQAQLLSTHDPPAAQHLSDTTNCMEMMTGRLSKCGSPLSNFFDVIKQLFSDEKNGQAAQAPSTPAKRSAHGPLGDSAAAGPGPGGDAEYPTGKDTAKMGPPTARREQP
UniProt P28223, sequence (whole entry, looked up): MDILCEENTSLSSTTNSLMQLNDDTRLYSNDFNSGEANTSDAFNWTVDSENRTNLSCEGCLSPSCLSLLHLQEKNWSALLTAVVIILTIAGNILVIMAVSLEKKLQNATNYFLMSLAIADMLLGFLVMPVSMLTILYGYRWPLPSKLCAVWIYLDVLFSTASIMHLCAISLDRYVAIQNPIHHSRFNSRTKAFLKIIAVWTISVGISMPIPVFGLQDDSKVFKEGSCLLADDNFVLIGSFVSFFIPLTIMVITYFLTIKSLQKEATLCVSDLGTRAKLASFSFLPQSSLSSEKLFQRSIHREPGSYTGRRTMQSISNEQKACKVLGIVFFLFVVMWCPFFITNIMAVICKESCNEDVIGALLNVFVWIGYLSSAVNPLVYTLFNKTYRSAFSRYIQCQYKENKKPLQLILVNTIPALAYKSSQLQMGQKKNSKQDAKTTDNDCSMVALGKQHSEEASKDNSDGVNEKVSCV
UniProt P54753, sequence (whole entry, looked up): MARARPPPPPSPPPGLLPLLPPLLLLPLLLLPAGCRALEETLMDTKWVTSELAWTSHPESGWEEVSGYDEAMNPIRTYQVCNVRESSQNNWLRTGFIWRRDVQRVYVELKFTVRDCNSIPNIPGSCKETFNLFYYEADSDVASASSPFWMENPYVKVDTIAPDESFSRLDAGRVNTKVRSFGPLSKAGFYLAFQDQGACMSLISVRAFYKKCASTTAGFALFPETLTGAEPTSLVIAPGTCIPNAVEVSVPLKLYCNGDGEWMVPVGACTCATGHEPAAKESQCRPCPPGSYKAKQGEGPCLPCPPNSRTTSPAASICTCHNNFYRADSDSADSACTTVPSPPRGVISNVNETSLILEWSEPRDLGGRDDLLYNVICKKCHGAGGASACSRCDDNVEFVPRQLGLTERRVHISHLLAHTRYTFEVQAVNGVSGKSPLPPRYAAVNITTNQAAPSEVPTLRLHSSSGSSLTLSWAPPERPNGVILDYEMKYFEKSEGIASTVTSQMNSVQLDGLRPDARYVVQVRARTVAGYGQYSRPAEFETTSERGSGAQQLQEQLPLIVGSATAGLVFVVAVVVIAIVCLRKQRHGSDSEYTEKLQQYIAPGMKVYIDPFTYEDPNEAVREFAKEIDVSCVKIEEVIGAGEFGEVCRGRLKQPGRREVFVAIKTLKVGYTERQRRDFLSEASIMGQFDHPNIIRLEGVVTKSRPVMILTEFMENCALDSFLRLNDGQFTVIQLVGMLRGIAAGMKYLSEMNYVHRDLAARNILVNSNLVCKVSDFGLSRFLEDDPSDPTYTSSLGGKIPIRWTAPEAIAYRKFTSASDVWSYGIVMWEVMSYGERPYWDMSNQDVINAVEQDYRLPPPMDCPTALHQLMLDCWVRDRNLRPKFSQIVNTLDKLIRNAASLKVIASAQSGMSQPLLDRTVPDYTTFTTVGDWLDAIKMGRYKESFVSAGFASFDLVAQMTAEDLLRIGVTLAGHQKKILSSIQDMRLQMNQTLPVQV
UniProt P07332, sequence (whole entry, looked up): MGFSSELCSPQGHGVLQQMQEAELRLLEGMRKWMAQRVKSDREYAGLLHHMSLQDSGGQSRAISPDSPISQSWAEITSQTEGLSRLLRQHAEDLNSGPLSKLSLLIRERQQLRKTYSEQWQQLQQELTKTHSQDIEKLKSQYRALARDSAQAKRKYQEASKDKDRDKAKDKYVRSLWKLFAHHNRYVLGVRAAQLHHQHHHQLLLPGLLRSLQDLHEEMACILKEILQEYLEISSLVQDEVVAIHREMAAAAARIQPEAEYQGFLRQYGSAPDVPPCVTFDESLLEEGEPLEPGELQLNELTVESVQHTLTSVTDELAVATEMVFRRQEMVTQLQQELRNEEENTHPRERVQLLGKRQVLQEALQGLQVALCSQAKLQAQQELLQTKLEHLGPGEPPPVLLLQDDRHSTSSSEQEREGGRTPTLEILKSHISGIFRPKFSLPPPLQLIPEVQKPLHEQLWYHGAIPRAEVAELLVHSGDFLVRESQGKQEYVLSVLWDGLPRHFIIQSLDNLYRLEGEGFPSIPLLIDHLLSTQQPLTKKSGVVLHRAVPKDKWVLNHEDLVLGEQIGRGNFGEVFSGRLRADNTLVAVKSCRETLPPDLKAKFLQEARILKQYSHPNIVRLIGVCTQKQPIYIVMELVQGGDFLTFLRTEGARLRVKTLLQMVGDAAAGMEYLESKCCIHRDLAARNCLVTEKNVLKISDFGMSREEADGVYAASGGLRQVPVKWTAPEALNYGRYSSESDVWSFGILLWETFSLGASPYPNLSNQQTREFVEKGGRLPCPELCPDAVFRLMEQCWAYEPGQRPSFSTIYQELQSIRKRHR

Sample 1
SMILES: COC[C@H]1OC(=O)c2coc3c2[C@@]1(C)C1=C(C3=O)[C@@H]2CCC(=O)[C@@]2(C)C[C@H]1OC(C)=O
Effect on: enzyme activity
Action: inhibitor
Tested at: 0.5 µM
Baseline: control
| target | remaining activity [%] |
| --- | --- |
| FES (Homo sapiens, UniProt P07332) | 98.2 |
| JAK2 (Homo sapiens, UniProt O60674) | 102 |
| BRSK2 (Homo sapiens, UniProt Q8IWQ3) | 95.3 |
| EPHB3 (Homo sapiens, UniProt P54753) | 96.8 |

Sample 2
Cell line: HEK-293T
Effect on: pseudovirus infection
Method: FDA-approved drug library counter-screen
Organism: VSV pseudotyped with VSV-G
Tested at: 10 µM
Time: 16 h
Baseline: vehicle-treated
| Compound | GFP-positive cells [%] |
| --- | --- |
| CCCN(CCC)S(=O)(=O)c1ccc(C(=O)O)cc1 | 125 |
| COC(=O)N[C@H](C(=O)N[C@@H](Cc1ccccc1)[C@@H](O)CN(Cc1ccc(-c2ccccn2)cc1)NC(=O)[C@@H](NC(=O)OC)C(C)(C)C)C(C)(C)C | 108 |
| CCCCCCC(=O)O[C@H]1CC[C@H]2[C@@H]3CCC4=CC(=O)CC[C@]4(C)[C@H]3CC[C@]12C | 126 |
| Cc1cccc(Nc2ccccc2C(=O)O)c1C | 73.8 |

Other studies, line by line
| SMILES | target | test | conditions | measurement | value |
| --- | --- | --- | --- | --- | --- |
| O=C(NCc1ncc(C(F)(F)F)cc1Cl)c1ccc2c(c1)C1(CCS(=O)(=O)CC1)[C@H](C1CC1)N2S(=O)(=O)c1ccc(F)cc1 | PRKACB (Homo sapiens, UniProt P22694) | cell-free assay, competition with immobilised ligand | 1 µM | remaining binding | 96% |
| CN1CCN(C(=O)c2ccc(NC(=O)Nc3ccc(N(C)c4ccnc(Nc5ccc(CS(C)(=O)=O)cc5)n4)cc3)cc2)CC1 | pknB (Mycobacterium tuberculosis, UniProt P9WI81) | binding | 1 µM | remaining binding | 87% |
| Cc1cc(-n2nc(Cc3cc(F)cc(C(F)(F)F)c3)nc2C)ccc1C(N)=O | HTR2A (Homo sapiens, UniProt P28223) | cell-free assay | 10 µM | inhibition | 10.5% |
| CCc1ccccc1C(=O)Nc1n[nH]c2c(C)c(F)c(C3C(C#N)=C(C)N(C)C(C)=C3C#N)cc12 | CRK2 (Plasmodium falciparum, UniProt P61075) | cell-free assay, competition with immobilised ligand | 1 µM | remaining binding | 100% |

A few entries again (other studies, line by line):
| SMILES | target | test | conditions | measurement | value |
| --- | --- | --- | --- | --- | --- |
| O=C(NCc1ncc(C(F)(F)F)cc1Cl)c1ccc2c(c1)C1(CCS(=O)(=O)CC1)[C@H](C1CC1)N2S(=O)(=O)c1ccc(F)cc1 | PRKACB (Homo sapiens, UniProt P22694) | cell-free assay, competition with immobilised ligand | 1 µM | remaining binding | 96% |
